# Assay results gathered from unrelated publications.
# Each numbered part is a random draw from the data of one study; scales do not carry over between parts.

# Study 1 — technique: RNA Bind-n-Seq; molecule type: RNA; sample: in vitro; tested at: 20 nM; setting: 6-mer, flanks averaged, single round; together with: 150 mM LiCl; baseline: input library; reading: higher = stronger binding
# Target: TAR DNA-binding protein 43, full length, His tag (TARDBP, Homo sapiens, UniProt Q13148, residues 1-414)
Sequence,6-mer enrichment (R)
UGGAUA,0.945
UUGCCA,0.951
CUCGGG,0.908
ACAGUC,0.798
CGGUAG,0.982
GGUCGA,0.973
AUGAAC,0.881
UGUCAA,0.896

# Study 2 — technique: RNA Bind-n-Seq; molecule type: RNA; sample: in vitro; tested at: 365 nM; baseline: no-protein control; reading: higher = stronger binding
# Target: RNA binding protein fox-1 homolog 2, RRM domain, GST-SBP tag (RBFOX2, Homo sapiens, UniProt O43251-10, residues 100-194)
# Setting: natural RNA segment, single round, ends assumed
# Construct (chain): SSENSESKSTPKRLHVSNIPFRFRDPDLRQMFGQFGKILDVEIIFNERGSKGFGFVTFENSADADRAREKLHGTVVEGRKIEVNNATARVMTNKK
Sequence,RBNS enrichment (R)
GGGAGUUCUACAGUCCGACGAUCAGUUAACAUUUAAAGGAGUUUUUGUGAGACAAAUUCUCCAUUGUGAGAUCUCUGAAGUGGGAUUGUCUUAUUUUCCUUAGUACAGCCCACUGCCAAAAAGCUUCCUCUGAUGGAAUUCUCGGGUGCCAA,0.311
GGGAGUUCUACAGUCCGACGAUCCCCCUCCAGCCCACUGCUUUAGGAUGACACAAUGAAUAACACCUAGUCAUAGAAAUCAGUCUCUCUGGUUUGUUUUGUAUUAUGUUGUACAUCAUUAAAGAUCUAAAUACUGGAAUUCUCGGGUGCCAA,0.268
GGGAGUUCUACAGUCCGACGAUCCGACACCUCGCUGCCAGGUUGUUUCAGCAAGGACCAGGUGUACCUGGACGGCAUCGUGCGCAUUCUGCGACAUCGCCAGACCAUCGAUUUCCCGUUGCUGACCUCACUGGUGGAAUUCUCGGGUGCCAA,0.639
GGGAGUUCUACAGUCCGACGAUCCUUUAAGAGAUUUUCAGAAAAGCUUUAUAUACAUUCUUUUCCAAUUUCAGUACAAAUGAAAGAAAAGUGGUUUUAAUCAGUGAUUUAGUGGACCUUGAGCAACUGUGCACUGGAAUUCUCGGGUGCCAA,0.356
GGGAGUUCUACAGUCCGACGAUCCUGGUUAGCCUUUGGAAUUUUUGUUGAUGAAAUCUCAAUACAUAAGGCGUCAACAGGGGGCUGGAGAGAUGGCUCAGGAGUUAAGAGCCCUGACUGCUCUUCCACAGGUCUGGAAUUCUCGGGUGCCAA,0.287
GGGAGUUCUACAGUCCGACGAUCUUUCUUGUGAUUUUUCUAUUGUGUAAUUCUUGGUGGGCUCUGUAGUUUAAUAAUAAGAAAAAGGCCAUUUCAUUUUAAAUUGUGACCUAUAAUUCUUUGUCUUGGGUUGGUGGAAUUCUCGGGUGCCAA,1.12
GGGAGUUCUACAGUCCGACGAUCUCCCCACCCCUCCUCUUCCUUUGUCCUGUUGUUAAGGUUUUUUCAAGCAGUGUGUUCAGUAUGCAAAUCAAUUAUUUUAAGAAUCGCUUUUGUAAAUAUCUUUGUGAAUAUGGAAUUCUCGGGUGCCAA,1.26
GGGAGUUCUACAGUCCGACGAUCCUCACACCCAGACACCCAGACACUUAACCACUCCUGCAAAGCAGAUAGAGCCUUCAGUUUGCCAUUACCCACUGUGGUCUGCUUUUCAGCCUAGCAAUUUGAGCUCUCAGUGGAAUUCUCGGGUGCCAA,0.641

# Study 3 — technique: RNA Bind-n-Seq; molecule type: RNA; sample: in vitro; tested at: 200 nM; setting: whole 134-nt RNA, ends assumed; together with: 150 mM KCl; baseline: input library; reading: higher = stronger binding
# Target: Ras GTPase-activating protein-binding protein 1, full length (G3BP1, Homo sapiens, UniProt Q13283)
# Sequence of UniProt Q13283 (whole entry, looked up): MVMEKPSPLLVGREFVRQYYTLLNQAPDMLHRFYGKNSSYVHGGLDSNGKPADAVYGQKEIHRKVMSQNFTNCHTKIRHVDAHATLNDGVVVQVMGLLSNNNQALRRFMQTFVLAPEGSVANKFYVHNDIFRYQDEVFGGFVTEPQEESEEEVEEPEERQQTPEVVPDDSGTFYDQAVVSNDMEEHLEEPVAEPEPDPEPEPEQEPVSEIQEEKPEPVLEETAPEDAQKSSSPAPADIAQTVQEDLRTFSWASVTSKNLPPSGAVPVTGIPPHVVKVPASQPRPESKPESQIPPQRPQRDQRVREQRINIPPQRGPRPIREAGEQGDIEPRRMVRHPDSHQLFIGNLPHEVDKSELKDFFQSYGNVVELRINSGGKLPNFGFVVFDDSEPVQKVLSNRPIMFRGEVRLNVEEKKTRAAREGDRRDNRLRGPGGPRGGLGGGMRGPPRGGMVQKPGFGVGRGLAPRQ
Sequence,log2 enrichment
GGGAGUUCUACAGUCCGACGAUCAGUCCUGUGCUACACAUCGUAUGUACCGAAUCGGGUUUUUGGGUUUGGGAAAAAGGGAAAGUAUUAUGUUACGCCGUUCGGAUCUGCACUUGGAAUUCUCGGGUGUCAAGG,-0.445
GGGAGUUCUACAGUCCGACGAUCGCAGGAAGUAAAAACAAAUGGAAAUGCUUCGGAUAGUGGCAGGGGUGAGGGUUGCUAAGGAAAGGGUGGGAUGGGAGUGGGUAAAGAGUUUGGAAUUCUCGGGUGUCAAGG,1.11
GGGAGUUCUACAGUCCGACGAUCGCAGGAAGUAAAAACAAAUGGAAAUGCUUCGGAUAGUGGCAGGGGUGGUGGUUGCUAAGGAAAGGGUGGGAUGGGAGUGGGUAAAGAGUUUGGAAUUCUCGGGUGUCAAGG,0.789
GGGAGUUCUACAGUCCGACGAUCUAACUUUAGUGGAGGAUCUGAUGGAUAUGGCAGUGGACGUGGAUUUGGGGAUGGCUAUAAUGGGUAUGGAGGAGGACCUGGAGGUGGCAAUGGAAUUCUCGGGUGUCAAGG,0.33
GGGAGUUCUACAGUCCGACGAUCCAAGUCCUGUGCUACACAUCGUAUGUACCGAAUCGGGUUUGGGUGGGAAAAAGGGAAAGUAUUAUGUUACGCCGUUCGGAUCUGCACUUCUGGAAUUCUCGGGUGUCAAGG,0.762
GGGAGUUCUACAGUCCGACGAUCAGUCCUGUGCUACACAUCGUAUGUACCGAAUCGGGGAAAGGGGUUUUUGGGGUGGGGAAAGUAUUAUGUUACGCCGUUCGGAUCUGCACUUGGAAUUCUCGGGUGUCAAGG,0.536
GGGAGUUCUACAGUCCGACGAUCGCAGGAAGUAAAAACAAAUGGAAAUGCUUCGGAUAGUGGCAGGGGUGGGGGUUGCUAAGGAAAGGGUGGGAUGGGAGUGGGUAAAGAGUGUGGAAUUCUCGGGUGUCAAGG,1.12
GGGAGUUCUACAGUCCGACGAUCUCCUGUGCUACACAUCGUAUGUACCGAAUCGGGUUUUUGGGUUUUUUUGGGAAAAAGGGAAAGUAUUAUGUUACGCCGUUCGGAUCUGCAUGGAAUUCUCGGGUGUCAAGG,-0.416

# Mixed results
Substance,target,assay,test system,setting,scale,quantity,result
"PhoQ, residues 284 288 289 292 302 303 GNNTDL","PhoP, residues 12 14 15 18 19 NFCKL (Escherichia coli, UniProt P23836)","Sort-seq, refers to: YFP reporter",E. coli,"PhoQ-PhoP variant library, together with: 10 µM Mg2+","baseline: high Mg2+ state, higher = stronger signaling",fold induction,4.66

# Some of these lines once more (study 2):
Sequence,RBNS enrichment (R)
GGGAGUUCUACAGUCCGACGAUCCUCACACCCAGACACCCAGACACUUAACCACUCCUGCAAAGCAGAUAGAGCCUUCAGUUUGCCAUUACCCACUGUGGUCUGCUUUUCAGCCUAGCAAUUUGAGCUCUCAGUGGAAUUCUCGGGUGCCAA,0.641
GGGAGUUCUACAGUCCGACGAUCCCCCUCCAGCCCACUGCUUUAGGAUGACACAAUGAAUAACACCUAGUCAUAGAAAUCAGUCUCUCUGGUUUGUUUUGUAUUAUGUUGUACAUCAUUAAAGAUCUAAAUACUGGAAUUCUCGGGUGCCAA,0.268
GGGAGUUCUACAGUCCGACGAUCCGACACCUCGCUGCCAGGUUGUUUCAGCAAGGACCAGGUGUACCUGGACGGCAUCGUGCGCAUUCUGCGACAUCGCCAGACCAUCGAUUUCCCGUUGCUGACCUCACUGGUGGAAUUCUCGGGUGCCAA,0.639
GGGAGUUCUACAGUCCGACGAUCUCCCCACCCCUCCUCUUCCUUUGUCCUGUUGUUAAGGUUUUUUCAAGCAGUGUGUUCAGUAUGCAAAUCAAUUAUUUUAAGAAUCGCUUUUGUAAAUAUCUUUGUGAAUAUGGAAUUCUCGGGUGCCAA,1.26
